Measured values from different studies.
Each line is one published result; not all experiments were run side by side. ± gives the spread as reported.
Route: intravenous

Structure (SMILES) | assay | system | conditions | tissue uptake
COc1ccc(Nc2nc(Nc3ccc(OCCOCC[18F])cc3)ncc2Br)cc1 |  | ICR mice, S180 tumour-bearing, bone | 370 kBq, 15 min | 3.3 ± 0.52 %ID/g
O=C(NCC1OC2CCC=CCCC2O1)c1ccc([18F])nc1 (stereo not shown) |  | healthy female BALB/c nude mice, large intestine | 7.4 MBq per mouse, 60 min | 5.6 ± 2 %ID/g
COc1ccc(Nc2nc(Nc3ccc(OCCOCCOCC[18F])cc3)ncc2Br)cc1 |  | ICR mice, S180 tumour, intestine | 370 kBq, 5 min | 0.9 ± 0.06 %ID
CCCC[C@H](NC(=O)CCCCCCCNC(=O)CN1CCN(CC(=O)O)CCN(CC(=O)O)CC1)C(=O)N[C@H]1CC(=O)NCCCC[C@@H](C(N)=O)NC(=O)[C@H](Cc2c[nH]c3ccccc23)NC(=O)[C@H](CCCNC(=N)N)NC(=O)[C@@H](Cc2ccccc2)NC(=O)[C@H](Cc2c[nH]cn2)NC1=O [fluorine-18 labelled] |  | C57 mice, B16/F10 melanoma, stomach | 1 h, with: NDP-MSH 10 µg | 0.4 ± 0.11 %ID/g
CCCC[C@H](NC(=O)CNC(=O)CNC(=O)[C@H](CCCCNC(=O)[C@H](CC(=O)O)NC(=O)C(C)c1ccc(CC(C)C)cc1)NC(=O)CN1CCN(CC(=O)O)CCN(CC(=O)O)CCN(CC(=O)O)CC1)C(=O)N[C@H]1CC(=O)NCCCC[C@@H](C(N)=O)NC(=O)[C@H](Cc2c[nH]c3ccccc23)NC(=O)[C@H](CCCNC(=N)N)NC(=O)[C@@H](Cc2ccccc2)NC(=O)[C@H](Cc2c[nH]cn2)NC1=O (stereo partly shown) [lutetium-177 labelled] |  | C57 mice, tumour-bearing, kidneys | 0.037 MBq, 0.5 h | 14.1 ± 1.39 %ID/g
O=C([O-])CN1CCN(CC(=O)[O-])CCN(CC(=O)NC[C@H]2CC[C@H](C(=O)N[C@H](Cc3cnc4ccccc4c3)C(=O)NCCCC[C@H](NC(=O)N[C@@H](CCC(=O)O)C(=O)O)C(=O)O)CC2)CCN(CC(=O)[O-])CC1.[64Cu+2] | ex vivo gamma counting | 22Rv1 tumour-bearing mice, spleen | 0.74 MBq, 2 h post-injection | 5.86 %ID/g
CCCC[C@H](NC(=O)COCCOCCNC(=O)CN1CCN(CC(=O)O)CCN(CC(=O)O)CC1)C(=O)N[C@H]1CC(=O)NCCCC[C@@H](C(N)=O)NC(=O)[C@H](Cc2c[nH]c3ccccc23)NC(=O)[C@H](CCCNC(=N)N)NC(=O)[C@@H](Cc2ccccc2)NC(=O)[C@H](Cc2c[nH]cn2)NC1=O [fluorine-18 labelled] |  | C57 mice, B16/F10 melanoma, intestines | 0.37 MBq, 2 h | 0.78 ± 0.14 %ID
Cc1cc(C)n(CCN(CCN)CCCCCCNC(=O)[C@@H](N)Cc2c[nH]cn2)n1.[99Tc+].[C-]#[O+].[C-]#[O+].[C-]#[O+] |  | BALB/c nude mice A549 xenograft, tumor | 4 h | 0.91 %ID/g
CC(C)C[C@H](NC(=O)[C@@H](CCCCNC(=O)[C@@H](Cc1ccccc1)NC(=O)CCCCCCCNC(=O)CN1CCN(CC(=O)O)CCN(CC(=O)O)CCN(CC(=O)O)CC1)NC(=O)[C@H](Cc1ccc(O)cc1)NC(=O)[C@H](CO)NC(=O)[C@H](Cc1c[nH]c2ccccc12)NC(=O)[C@H](Cc1c[nH]cn1)NC(=O)[C@@H]1CCC(=O)N1)C(=O)N[C@@H](CCCNC(=N)N)C(=O)N1CCC[C@H]1C(=O)NCC(N)=O [indium-111 labelled] |  | male athymic nude mice, DU-145 prostate cancer xenograft, pancreas | dose not given, 1 h, with: unlabeled blocking peptide 10 µg | 0.24 ± 0.06 %ID/g
O=C(NCC1OC2CCC=CCCC2O1)c1ccc(COCCOCCOCC[18F])cc1 (stereo not shown) |  | healthy female BALB/c nude mice, liver | 7.4 MBq per mouse, 30 min | 4.5 ± 0.2 %ID/g

Some of these lines once more:
Structure (SMILES) | assay | system | conditions | tissue uptake
O=C(NCC1OC2CCC=CCCC2O1)c1ccc(COCCOCCOCC[18F])cc1 (stereo not shown) |  | healthy female BALB/c nude mice, liver | 7.4 MBq per mouse, 30 min | 4.5 ± 0.2 %ID/g
